Published values collected from several papers.

SMILES	assay	test system	setting	measurement	result
CCC(C)C(=O)OC1C2C3(C)CCC(OC4CC(OC)C(OC5OC(C)C(OC6OC(CO)C(O)C(O)C6O)C(OC)C5O)C(C)O4)CC3CCC23OC32CCC(C(C)=O)C2(C)C1OC(C)=O (centres unmarked)		pooled human faecal microbiota	50 µM, 37 °C, anaerobic	time to complete conversion	≤ 8 h
CC(C)(C)OC(=O)C[C@H](NC(=O)OCc1ccccc1)C(=O)CBr	mass spectrometry	solution	loss of tert-butyl group	time to onset of degradation	> 6 h
CC[C@H](C)[C@H](NC(=O)[C@H](CCCNC(=N)N)NC(=O)[C@H](CC(C)C)NC(=O)[C@@H](N)Cc1ccccc1)C(=O)N[C@@H](CCCNC(=N)N)C(=O)N1CCC[C@H]1C(=O)N[C@@H](CCCCN)C(=O)O	RP-HPLC	rat plasma	37 °C	time to complete degradation	≤ 4 h
CC[C@H](C)[C@@H]1NC(=O)[C@H](CC(N)=O)NC(=O)[C@@H]2CCCN2C(=O)[C@@H](NC(=O)[C@H](CC(N)=O)NC(=O)[C@@H](N)CCC(N)=O)COC(=O)[C@H](CCSC)NC(=O)[C@H](Cc2c[nH]c3ccccc23)NC(=O)[C@H](CCC(N)=O)NC(=O)CNC(=O)[C@H](Cc2ccccc2)N(C)C1=O		human plasma	37 °C	time to complete degradation	2 h
CC[C@H](C)[C@@H]1NC(=O)[C@H](Cc2ccc(O)cc2)NC(=O)[C@@H](N)Cc2cn(nn2)CCCC[C@@H](C(=O)N2CCC[C@H]2C(=O)N[C@@H](CC(C)C)C(=O)NCC(N)=O)NC(=O)[C@H](CC(N)=O)NC(=O)[C@H](CCC(N)=O)NC1=O	RP-HPLC	human pregnancy serum	37 °C	time to disappearance	10 days
C[C@]12CC[C@H](OC(=O)NC3CCNCC3)C[C@H]1CC[C@@H]1[C@@H]2CC[C@]2(C)[C@@H](c3ccc(=O)oc3)CC[C@]12O		male pigmented guinea pigs	intraperitoneal, 6 mg/kg	time to death	24 h
CC[C@H](C)[C@@H]1NC(=O)[C@H](CCCCN)NC(=O)[C@H]([C@@H](C)O)NC(=O)[C@H](Cc2ccccc2)NC(=O)[C@H]([C@@H](C)CC)NC(=O)[C@@H]2CCCN2C(=O)[C@@H](N)CSSC[C@@H](C(=O)NCC(=O)NCC(=O)N[C@@H](CCCNC(=N)N)C(=O)N[C@@H](CCCNC(=N)N)C(=O)N[C@@H](CCCCN)C(=O)N[C@@H](CCCCN)C(=O)O)NC(=O)[C@H]([C@@H](C)O)NC(=O)CNC(=O)[C@H](CCC(N)=O)NC1=O	LC-MS	human serum 20% v/v		time to complete degradation	2 h
COC1CC(OC2CCC3(C)C(CCC45OC46CCC(C(C)=O)C6(C)C(OC(C)=O)C(OC(=O)c4ccccc4)C35)C2)OC(C)C1OC1OC(C)C(OC2OC(CO)C(O)C(O)C2O)C(OC)C1O (centres unmarked)		pooled human faecal microbiota	50 µM, 37 °C, anaerobic	time to complete conversion	≤ 8 h
CC[C@H](C)[C@@H]1NC(=O)[C@H](CC(N)=O)NC(=O)[C@@H]2CCCN2C(=O)[C@@H](NC(=O)[C@H](CC(N)=O)NC(=O)[C@@H](N)CCC(N)=O)COC(=O)[C@H](CCSC)NC(=O)[C@H](Cc2c[nH]c3ccccc23)NC(=O)[C@H](CCC(N)=O)NC(=O)CNC(=O)[C@H](Cc2ccccc2)NC1=O	measured: pyroglutamyl ring-opened product	ammonium carbonate	pH 8, 25 °C	time to complete conversion	≤ 24 h
CC[C@H](C)[C@H](N)C(=O)N[C@@H](CC(N)=O)C(=O)N[C@H]1CSC(=O)[C@H](CC(C)C)NC(=O)[C@H](CC(C)C)NC(=O)[C@H](Cc2ccccc2)NC(=O)[C@H](CC(=O)O)NC1=O	HPLC	ammonium carbonate	0.33 mM, pH 8.0, 37 °C	time to complete degradation	~8 h
CCc1noc(CC)c1C(=O)O[C@H]1C(C)=C[C@]23C(=O)[C@@H](C=C(CO)[C@@H](O)[C@]12O)[C@H]1[C@@H](C[C@H]3C)C1(C)C		female IAF hairless guinea pigs	topical, 0.015% and 0.05% gel, single application	time to peak skin reaction	24 h
O=C(Cc1ccc2ccccc2c1)N[C@H](Cc1ccccc1)C(=O)N[C@H](Cc1ccc(O)cc1)C(=O)N[C@H](Cc1ccccc1)C(=O)N[C@H](Cc1ccc(OP(=O)(O)O)cc1)C(=O)O	substrate	SAOS-2 cell lysate	500 µM, pH 7.4, 37 °C	time to 50% dephosphorylation	≤ 120 min
CSCC[C@@H]1NC(=O)[C@H](CCC(=O)O)NC(=O)[C@H](CC(C)C)NC(=O)[C@H](CC(C)C)NC(=O)[C@H](CCCCN)NC(=O)[C@H](CC(=O)O)NC(=O)[C@H](CC(=O)O)NC(=O)[C@H](CC(N)=O)NC(=O)[C@H](CC(=O)O)NC(=O)[C@@H]2CSSC[C@@H]3NC(=O)[C@H]([C@@H](C)O)NC(=O)[C@H](C(C)C)NC(=O)[C@@H]4CCCN4C(=O)[C@H](CSSC[C@H](NC(=O)[C@H](CC(=O)O)NC(=O)[C@H](Cc4ccccc4)NC(=O)[C@H](CC(N)=O)NC(=O)[C@H](CCCCN)NC(=O)[C@H](CCC(=O)O)NC(=O)[C@H](CC(=O)O)NC(=O)[C@H](C)NC(=O)[C@@H](NC(=O)[C@H](Cc4c[nH]cn4)NC(=O)[C@@H](N)CCC(=O)O)CSSC[C@@H](C(N)=O)NC(=O)[C@H](Cc4ccccc4)NC(=O)CNC3=O)C(=O)N[C@@H](CCCNC(=N)N)C(=O)N[C@@H](CCCNC(=N)N)C(=O)N[C@@H](CO)C(=O)N[C@@H](CC(C)C)C(=O)N[C@@H](CCCNC(=N)N)C(=O)N[C@@H](CC(N)=O)C(=O)NCC(=O)N[C@@H](CC(=O)O)C(=O)N2)NC(=O)[C@H](Cc2ccc(O)cc2)NC(=O)[C@H](Cc2ccc(O)cc2)NC(=O)CNC1=O		porcine simulated intestinal fluid		time to complete degradation	24 h
CC[C@H](C)[C@H](NC(=O)CNC(=O)[C@H](C)NC(=O)[C@@H](NC(=O)CNC(=O)[C@H](CCCNC(=N)N)NC(=O)[C@@H](NC(=O)[C@H](CCCNC(=N)N)NC(=O)[C@H](CCC(=O)O)NC(=O)CNC(=O)[C@H](CCCNC(=N)N)NC(=O)[C@H](CCCCN)NC(=O)[C@H](C)NC(=O)[C@H](Cc1c[nH]cn1)NC(=O)CNC(=O)[C@H](CCCCN)NC(=O)[C@H](CCCNC(=N)N)NC(=O)[C@H](C)NC(=O)[C@H](Cc1ccc(O)cc1)NC(=O)[C@H](C)NC(=O)[C@H](CC(C)C)NC(=O)[C@H](CC(C)C)NC(=O)CN)C(C)C)[C@@H](C)O)C(=O)N[C@@H](CCCNC(=N)N)C(=O)N[C@@H](Cc1ccccc1)C(=O)N[C@@H](CC(C)C)C(=O)N[C@@H](Cc1ccc(O)cc1)C(=O)N[C@@H](C)C(=O)N[C@@H](C)C(=O)N1CCC[C@H]1C(=O)N[C@@H](CCCNC(=N)N)C(=O)N[C@@H](CCCNC(=N)N)C(=O)O		100% human serum	27 µM, 37 °C, heat-inactivated serum	time to complete proteolysis	10 to 30 min

A few entries again:
SMILES	assay	test system	setting	measurement	result
C[C@]12CC[C@H](OC(=O)NC3CCNCC3)C[C@H]1CC[C@@H]1[C@@H]2CC[C@]2(C)[C@@H](c3ccc(=O)oc3)CC[C@]12O		male pigmented guinea pigs	intraperitoneal, 6 mg/kg	time to death	24 h
